Assay results gathered from unrelated publications.
Lines come from different studies, so protocols differ. Numbers after ± are the reported error.
Faah: Fatty-acid amide hydrolase 1 (Faah, Rattus norvegicus, UniProt P97612)
Sequence of UniProt P97612 (whole entry, looked up): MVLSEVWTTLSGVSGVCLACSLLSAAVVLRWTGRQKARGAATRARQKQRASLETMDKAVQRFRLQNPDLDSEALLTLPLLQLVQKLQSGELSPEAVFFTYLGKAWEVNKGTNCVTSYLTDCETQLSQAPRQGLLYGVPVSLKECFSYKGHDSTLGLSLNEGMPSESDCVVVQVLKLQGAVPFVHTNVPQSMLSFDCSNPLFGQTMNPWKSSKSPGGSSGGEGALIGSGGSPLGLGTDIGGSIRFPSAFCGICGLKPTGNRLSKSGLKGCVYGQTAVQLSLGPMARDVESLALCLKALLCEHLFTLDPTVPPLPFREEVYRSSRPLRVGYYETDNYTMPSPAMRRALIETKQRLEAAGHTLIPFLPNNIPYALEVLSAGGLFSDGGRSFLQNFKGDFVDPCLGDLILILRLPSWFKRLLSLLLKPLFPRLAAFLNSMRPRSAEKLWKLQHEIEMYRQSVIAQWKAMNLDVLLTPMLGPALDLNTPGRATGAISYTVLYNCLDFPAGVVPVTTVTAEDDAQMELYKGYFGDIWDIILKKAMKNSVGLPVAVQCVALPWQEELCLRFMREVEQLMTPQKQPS
BRD4 BD1: Bromodomain-containing protein 4, BD1 (BRD4, Homo sapiens, UniProt O60885)
Histone acetyltransferase RTT109 with Vps75: Histone acetyltransferase RTT109, with Vps75 (Saccharomyces cerevisiae, UniProt Q07794)
Sequence of UniProt Q07794 (whole entry, looked up): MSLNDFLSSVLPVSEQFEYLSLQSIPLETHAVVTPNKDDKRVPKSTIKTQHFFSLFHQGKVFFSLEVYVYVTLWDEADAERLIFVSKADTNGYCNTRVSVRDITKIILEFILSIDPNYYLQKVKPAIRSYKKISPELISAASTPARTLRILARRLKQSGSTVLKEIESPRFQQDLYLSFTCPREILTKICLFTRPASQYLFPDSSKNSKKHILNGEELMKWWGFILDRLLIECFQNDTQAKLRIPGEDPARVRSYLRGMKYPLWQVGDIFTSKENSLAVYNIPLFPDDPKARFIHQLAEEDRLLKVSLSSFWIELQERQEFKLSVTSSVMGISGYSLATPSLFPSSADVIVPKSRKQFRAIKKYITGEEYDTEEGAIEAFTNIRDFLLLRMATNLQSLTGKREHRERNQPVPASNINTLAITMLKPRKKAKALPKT
CTNNB1 with BCL9 HD2: Catenin beta-1, with BCL9 HD2 (CTNNB1, Homo sapiens, UniProt P35222)
Sequence of UniProt P35222 (whole entry, looked up): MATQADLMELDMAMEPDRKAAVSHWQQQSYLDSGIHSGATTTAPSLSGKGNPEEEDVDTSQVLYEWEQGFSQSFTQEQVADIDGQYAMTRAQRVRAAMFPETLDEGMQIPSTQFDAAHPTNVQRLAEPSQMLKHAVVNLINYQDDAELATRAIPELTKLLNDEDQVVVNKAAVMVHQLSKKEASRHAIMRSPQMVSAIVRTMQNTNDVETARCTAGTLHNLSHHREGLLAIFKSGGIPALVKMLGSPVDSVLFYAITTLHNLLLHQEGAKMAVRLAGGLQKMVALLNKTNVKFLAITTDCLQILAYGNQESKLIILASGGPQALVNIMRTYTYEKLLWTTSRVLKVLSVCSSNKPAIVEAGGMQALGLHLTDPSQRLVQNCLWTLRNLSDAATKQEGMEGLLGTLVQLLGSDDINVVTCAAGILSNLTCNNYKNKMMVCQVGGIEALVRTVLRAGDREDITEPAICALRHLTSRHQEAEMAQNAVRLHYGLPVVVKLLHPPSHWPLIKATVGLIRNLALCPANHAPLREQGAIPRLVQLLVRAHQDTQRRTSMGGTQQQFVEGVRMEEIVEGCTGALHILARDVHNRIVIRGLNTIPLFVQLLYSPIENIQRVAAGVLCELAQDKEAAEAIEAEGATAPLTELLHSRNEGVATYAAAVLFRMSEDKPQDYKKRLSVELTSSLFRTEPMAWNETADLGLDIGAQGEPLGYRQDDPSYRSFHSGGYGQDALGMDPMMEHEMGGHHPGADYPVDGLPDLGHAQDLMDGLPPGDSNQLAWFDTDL
UCHL1: Ubiquitin carboxyl-terminal hydrolase isozyme L1 (UCHL1, Homo sapiens, UniProt P09936)
Sequence of UniProt P09936 (whole entry, looked up): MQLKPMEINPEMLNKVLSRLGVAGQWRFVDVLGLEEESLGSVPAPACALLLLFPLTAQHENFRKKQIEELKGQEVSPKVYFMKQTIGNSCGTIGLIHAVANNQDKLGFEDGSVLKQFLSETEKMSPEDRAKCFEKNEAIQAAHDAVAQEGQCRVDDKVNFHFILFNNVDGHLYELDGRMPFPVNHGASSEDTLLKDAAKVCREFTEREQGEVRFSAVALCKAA
serine/threonine phosphatase Stp1: serine/threonine phosphatase Stp1 (Staphylococcus aureus, UniProt A0A0H2XF73)
SIRT2: NAD-dependent protein deacetylase sirtuin-2 (SIRT2, Homo sapiens, UniProt Q8IXJ6)
Sequence of UniProt Q8IXJ6 (whole entry, looked up): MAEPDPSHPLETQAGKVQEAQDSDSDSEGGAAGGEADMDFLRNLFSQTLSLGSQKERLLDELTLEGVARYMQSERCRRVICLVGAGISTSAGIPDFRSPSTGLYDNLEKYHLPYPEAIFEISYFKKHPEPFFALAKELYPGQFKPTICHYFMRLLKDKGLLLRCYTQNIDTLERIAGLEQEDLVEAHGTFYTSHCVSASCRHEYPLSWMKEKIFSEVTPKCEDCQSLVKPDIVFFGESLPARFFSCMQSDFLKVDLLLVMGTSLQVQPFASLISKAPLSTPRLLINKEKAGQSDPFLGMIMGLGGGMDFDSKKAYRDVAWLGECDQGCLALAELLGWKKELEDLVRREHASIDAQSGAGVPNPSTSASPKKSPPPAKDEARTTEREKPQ
Sequence of UniProt P00760 (whole entry, looked up): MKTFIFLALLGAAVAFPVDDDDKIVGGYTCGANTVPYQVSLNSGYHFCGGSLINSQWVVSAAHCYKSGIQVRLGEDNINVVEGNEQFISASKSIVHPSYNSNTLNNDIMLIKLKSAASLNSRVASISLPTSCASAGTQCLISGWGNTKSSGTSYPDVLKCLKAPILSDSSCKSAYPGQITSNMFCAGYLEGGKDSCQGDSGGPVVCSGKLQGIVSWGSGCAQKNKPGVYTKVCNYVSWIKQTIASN
Sequence of UniProt O95271 (whole entry, looked up): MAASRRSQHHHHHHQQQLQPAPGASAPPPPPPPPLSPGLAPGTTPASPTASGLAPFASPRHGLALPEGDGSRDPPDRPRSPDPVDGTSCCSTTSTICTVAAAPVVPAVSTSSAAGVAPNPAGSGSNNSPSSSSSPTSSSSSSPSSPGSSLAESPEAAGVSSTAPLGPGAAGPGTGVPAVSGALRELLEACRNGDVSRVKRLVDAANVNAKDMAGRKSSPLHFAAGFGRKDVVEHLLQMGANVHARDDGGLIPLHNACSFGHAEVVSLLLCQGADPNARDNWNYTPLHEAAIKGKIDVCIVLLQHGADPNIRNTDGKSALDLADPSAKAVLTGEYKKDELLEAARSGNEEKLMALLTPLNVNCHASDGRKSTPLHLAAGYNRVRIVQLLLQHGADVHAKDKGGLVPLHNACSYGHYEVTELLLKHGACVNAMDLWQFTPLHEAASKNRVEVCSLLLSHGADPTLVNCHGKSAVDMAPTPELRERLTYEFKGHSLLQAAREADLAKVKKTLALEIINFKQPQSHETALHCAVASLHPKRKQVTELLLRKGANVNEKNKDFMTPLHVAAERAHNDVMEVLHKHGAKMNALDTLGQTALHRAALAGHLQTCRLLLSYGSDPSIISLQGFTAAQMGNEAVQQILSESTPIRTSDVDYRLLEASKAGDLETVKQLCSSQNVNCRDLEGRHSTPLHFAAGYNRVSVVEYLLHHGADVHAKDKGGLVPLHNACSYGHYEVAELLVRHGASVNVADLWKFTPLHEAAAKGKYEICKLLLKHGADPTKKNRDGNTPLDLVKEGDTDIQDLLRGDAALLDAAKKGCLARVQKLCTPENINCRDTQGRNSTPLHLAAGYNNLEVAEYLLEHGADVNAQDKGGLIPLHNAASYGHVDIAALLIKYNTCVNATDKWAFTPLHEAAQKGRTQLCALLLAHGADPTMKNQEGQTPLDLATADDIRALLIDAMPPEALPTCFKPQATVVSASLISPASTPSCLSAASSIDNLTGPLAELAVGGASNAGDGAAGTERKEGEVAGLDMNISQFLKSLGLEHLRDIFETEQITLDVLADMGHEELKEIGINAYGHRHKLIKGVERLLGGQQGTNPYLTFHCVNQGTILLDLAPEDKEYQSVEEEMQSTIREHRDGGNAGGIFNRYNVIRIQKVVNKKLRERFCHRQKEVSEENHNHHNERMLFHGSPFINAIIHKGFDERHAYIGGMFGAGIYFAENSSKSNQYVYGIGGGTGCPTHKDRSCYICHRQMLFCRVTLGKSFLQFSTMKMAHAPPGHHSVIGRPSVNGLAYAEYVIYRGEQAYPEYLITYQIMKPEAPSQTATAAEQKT
Sequence of UniProt Q07343 (whole entry, looked up): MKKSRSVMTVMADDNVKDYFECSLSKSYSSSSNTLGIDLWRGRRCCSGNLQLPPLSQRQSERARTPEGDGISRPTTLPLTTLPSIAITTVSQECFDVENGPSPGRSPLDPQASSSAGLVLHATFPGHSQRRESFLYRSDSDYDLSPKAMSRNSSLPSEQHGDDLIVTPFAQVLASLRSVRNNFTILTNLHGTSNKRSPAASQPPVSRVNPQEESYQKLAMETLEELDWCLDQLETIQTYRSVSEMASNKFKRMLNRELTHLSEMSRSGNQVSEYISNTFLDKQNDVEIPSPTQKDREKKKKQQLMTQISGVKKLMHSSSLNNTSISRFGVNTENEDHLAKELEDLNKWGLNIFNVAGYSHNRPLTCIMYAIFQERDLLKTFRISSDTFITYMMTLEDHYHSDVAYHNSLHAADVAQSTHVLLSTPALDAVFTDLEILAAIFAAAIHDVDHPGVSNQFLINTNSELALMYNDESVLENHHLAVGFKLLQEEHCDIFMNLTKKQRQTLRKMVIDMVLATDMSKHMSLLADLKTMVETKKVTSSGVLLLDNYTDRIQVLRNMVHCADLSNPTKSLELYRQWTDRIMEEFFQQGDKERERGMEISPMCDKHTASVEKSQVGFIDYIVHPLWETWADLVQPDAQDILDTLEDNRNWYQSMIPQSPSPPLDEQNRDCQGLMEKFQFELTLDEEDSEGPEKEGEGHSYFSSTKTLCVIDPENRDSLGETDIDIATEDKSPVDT

SMILES | target | assay | system | setting | IC50
O=c1nc(SCc2cc(F)cc(C(F)(F)F)c2)nc(SCc2ccc3sccc3c2)[nH]1 | TOP2A (Homo sapiens, UniProt P11388) | ATPase activity, inhibitor, competitive ATPase | – | together with: 1 mM ATP | 7.1 µM
O=C(Nc1cnccc1Cl)N1CCN(Cc2ccc3c(c2)OC(F)(F)O3)CC1 | Faah | enzyme activity, inhibitor | rat brain membranes | 0 min preincubation | 0.473 µM
CN(C)C(=O)c1cc2cnc(Nc3cc(C(=O)O)cc(-c4ccc5c(=O)cc(N6CCOCC6)oc5c4)c3)nc2n1C1CCCC1 | BRD4 BD1 | inhibitor | – | – | > 10 µM
N=C(N)c1ccc(OCCCOc2ccc(C(=N)N)cc2)cc1 | Serine protease 1 (PRSS1, Bos taurus, UniProt P00760) | enzyme activity, inhibitor | – | – | 7 ± 1 µM
COc1cc2nccc(Oc3ccc(NC(=O)c4cc5c(n(-c6ccccc6)c4=O)CCCC5=O)nc3)c2cc1OC | LYN (Homo sapiens, UniProt P07948) | cell viability, CellTiter-Glo | Ba/F3 expressing recombinant kinase | 48 h | > 0.1 µM
CC(=O)c1cnc2ccc(-c3cc(Cl)c(O)c(Cl)c3)nc2c1N[C@H]1CC[C@H](CN(C)C)CC1 | Receptor-like protein kinase FERONIA (FER, Arabidopsis thaliana, UniProt Q9SCZ4) | kinase activity, inhibitor, ADP-Glo | – | 60 min, together with: 50 µM ATP | 0.07 µM
Fc1cccc(Nc2nc(-c3ccccc3)no2)c1 | Histone acetyltransferase RTT109 with Vps75 | enzyme activity, inhibitor, HTS, CPM-based, dose response | – | – | > 125 µM
COc1ccc(F)cc1C(=O)NCc1ccc(-c2nn([C@@H](C)C(F)(F)F)c(N)c2C(N)=O)cc1 | TEC (Homo sapiens, UniProt P42680) | binding, NanoBRET target engagement | HEK293 | together with: tracer | 0.0705 ± 0.0203 µM
COc1cc(C(=O)NS(=O)(=O)c2ccccc2C)ccc1Cc1cn(C)c2ccc(NC(=O)OC3CCCC3)cc12 | LRRC8A/LRRC8C (Homo sapiens, UniProt Q8IWT6+Q8TDW0, Y124F/Y126F) | ion current, inhibitor, whole-cell patch clamp | HCT116 LRRC8-/- transfected | at +100 mV | 19.6 µM
Brc1cccc2nsnc12 | Histone acetyltransferase RTT109 with Vps75 | enzyme activity, inhibitor, HTS, CPM-based, dose response | – | – | > 125 µM
CCOC(=O)[C@H](CCc1ccccc1)N[C@@H](C)C(=O)N1CCC[C@H]1C(=O)O | ACE (Oryctolagus cuniculus, UniProt P12822) | enzyme activity, inhibitor | water | 2 h, pH 8.3, 37 °C, together with: hippuryl-histidyl-leucine | 0.0376 µM
O=C(OCc1ccccc1)c1ccc(O)cc1 | Histone-arginine methyltransferase CARM1 (Mus musculus, UniProt Q9WVG6) | methyltransferase activity, inhibitor | – | together with: PABP1 substrate, [3H]AdoMet | 474 µM
Cc1ccc(S(=O)(=O)C(CNC(=O)COc2ccccc2)c2cccs2)cc1 (stereo not shown) | CTNNB1 with BCL9 HD2 | BCL9 binding, inhibitor, AlphaScreen | – | – | 5.41 µM
CCc1cccc(CC)c1NC(=O)C(C#N)=Cc1ccc(C#N)cc1 | UCHL1 | inhibitor, ubiquitin-rhodamine cleavage | – | 2 h preincubation | > 200 µM
CN(C)C(=O)c1cc2cnc(Nc3ccc4c(=O)cc(N5CCOCC5)oc4c3)nc2n1C1CCCC1 | BRD4 BD1 | inhibitor | – | – | > 10 µM
COc1cccc(NC(=O)C(C#N)=Cc2cccc(Cl)c2Cl)c1 | UCHL1 | inhibitor, ubiquitin-rhodamine cleavage | – | 2 h preincubation | > 200 µM
COc1ccc(C2=NN(C3CCCCCC3)C(=O)[C@@H]3CC=CC[C@H]23)cc1-c1ccc(C(=O)NCC(N)=O)cc1 (relative stereo) | 3',5'-cyclic-AMP phosphodiesterase 4B, isoform PDE4B1 (PDE4B, Homo sapiens, UniProt Q07343) | enzyme activity, inhibitor, scintillation proximity | – | together with: 0.5 µM substrate | 0.398 µM
CC1(C)CC[C@]2(C(=O)O)CC[C@]3(C)C(=CC[C@@H]4[C@@]5(C)C[C@@H](O)[C@H](O)C(C)(C)[C@@H]5CC[C@]43C)[C@@H]2C1 | serine/threonine phosphatase Stp1 | phosphatase activity, inhibitor | – | – | > 135 µM
CN(C)C(=O)c1cc2cnc(Nc3ccc4c(=O)cc(N5CCNCC5)oc4c3)nc2n1C1CCCC1 | BRD4 BD1 | inhibitor | – | – | 0.021 µM
C=CC(=O)Nc1cccc(Oc2nc(Nc3ccc(N4CCN(C)CC4)cc3)nc3ccoc23)c1 | BTK (Homo sapiens, UniProt Q06187) | – | – | concentration not given | 0.00156 µM
CCOCCOCCOCCNC(=S)NCCCC[C@H](NS(C)(=O)=O)C(=O)N[C@@H](C)C(=O)N[C@@H](CCCNC(=N)N)C(N)=O | SIRT2 | enzyme activity, inhibitor | – | – | 51 ± 12 µM
O=S1(=O)C=C(Oc2ccc(F)cc2)c2ccccc21 | Histone acetyltransferase RTT109 with Vps75 | enzyme activity, inhibitor, HTS, CPM-based, dose response | – | – | > 125 µM
Cc1ccc(Cn2cc(COc3cccc(Cc4cnc(NC(=O)CSc5nc(C)cc(C)n5)s4)c3)nn2)cc1 | SIRT2 | – | – | – | 0.17 µM
O=C(Nc1nc(-c2ccccc2)ns1)c1cccs1 | Histone acetyltransferase RTT109 with Vps75 | enzyme activity, inhibitor, HTS, CPM-based, dose response | – | – | > 125 µM
FC(F)(F)c1cc(CO[C@H]2CCCN[C@H]2c2ccccc2)cc(C(F)(F)F)c1 | TACR1 (Homo sapiens, UniProt P25103) | intracellular calcium increase, antagonist | U373 MG | together with: substance P 100 nM | < 0.1 µM

SMILES | target | assay | system | setting | IC50
COc1cc([C@@H]2c3cc4c(cc3[C@H](O)[C@H]3COC(=O)[C@H]23)OCO4)cc(OC)c1OC | serine/threonine phosphatase Stp1 | enzyme activity, inhibitor | – | together with: pNPP | > 241 µM
Cn1ccnc1-c1noc(N)n1 | Histone acetyltransferase RTT109 with Vps75 | enzyme activity, inhibitor, HTS, CPM-based, dose response | – | – | > 125 µM
COc1c(Cl)cccc1Nc1c(-c2ccncc2OC[C@@H]2COCCO2)[nH]c2c1C(=O)NCC2 | EPHA7 (Homo sapiens, UniProt Q15375) | kinase activity, inhibitor, TR-FRET | – | together with: ATP 2 mM | 2.6 µM
CCCC(C)C(=O)Nc1ccc(Cl)c(Cl)c1 (stereo not shown) | serine/threonine phosphatase Stp1 | phosphatase activity, inhibitor | – | – | > 384 µM
COc1ccc(-c2cc(=O)c3cccc(Nc4ncc5cc(C(=O)N(C)C)n(C6CCCC6)c5n4)c3o2)cc1 | Bromodomain-containing protein 4, BD2 (BRD4, Homo sapiens, UniProt O60885) | inhibitor | – | – | > 10 µM
CC[C@@](O)(c1cnc(C(F)(F)F)c(Cl)c1)c1c2cnn(C3CC3)c(=O)c2nn1C | Dihydroorotate dehydrogenase (Canis lupus familiaris, UniProt A0A8I3MWX2) | enzyme activity, inhibitor, DCIP reduction | – | – | > 30 µM
CC[C@@H]1[C@H](F)C(=O)N[C@@H]1COc1nccc2cc(C(N)=O)c(OC)cc12 | MAP3K4 (Homo sapiens, UniProt Q9Y6R4) | ATP-site probe binding, ActivX profiling | THP-1 cell lysate | Lys2 site | > 5 µM
Cc1ccc2[nH]nc(-c3nnc(Nc4ccc(C)c(C)c4)s3)c2c1 | thymidine phosphorylase | enzyme activity, inhibitor, spectrophotometric | – | pH 7.5, 25 °C | 13.4 ± 1.09 µM
O=S1(=O)CC(N2CCCCC2)c2ccccc21 (stereo not shown) | Histone acetyltransferase RTT109 with Vps75 | enzyme activity, inhibitor, HTS, CPM-based, dose response | – | – | > 125 µM
Cc1cnc(-c2ccc(-c3ccc(NC(=O)Nc4c(F)cc(F)cc4F)cc3F)c3c2C(=O)NC3)[nH]1 | MET (Homo sapiens, UniProt P08581) | enzyme activity, inhibitor, mobility shift | – | together with: ATP 1 mM | 0.0187 µM
O=S1(=O)CC(Sc2ccccc2)c2ccccc21 (stereo not shown) | Histone acetyltransferase RTT109 with Vps75 | enzyme activity, inhibitor, HTS, CPM-based, dose response | – | – | > 125 µM
NC(=O)c1ccc[n+]([C@@H]2O[C@H](COP(=O)([O-])OP(=O)(O)OC[C@H]3O[C@@H](n4cnc5c(N)ncnc54)[C@H](O)[C@@H]3O)[C@@H](O)[C@H]2O)c1 | TNKS (Homo sapiens, UniProt O95271) | histone H1 ADP-ribosylation, inhibitor, DELFIA | – | – | 400 µM
Cc1ccc2[nH]nc(-c3nnc(Nc4ccc(Cl)cc4)s3)c2c1 | thymidine phosphorylase | enzyme activity, inhibitor, spectrophotometric | – | pH 7.5, 25 °C | 8.6 ± 0.86 µM
CSc1ccccc1C(=O)NCCn1cc(C(=O)NCc2cccc(C)n2)c(=O)c2cc3c(cc21)OC(F)(F)O3 | Cytochrome P450 2C8 (CYP2C8, Homo sapiens, UniProt P10632) | enzyme activity, inhibitor | human liver microsomes | 20 min, 30 min NADPH preincubation, together with: amodiaquine 2 µM | > 100 µM
COc1ccc(NC(=O)C(C#N)=Cc2cccc(O)c2)cc1Cl | UCHL1 | inhibitor, ubiquitin-rhodamine cleavage | – | 2 h preincubation | 160 µM
O=C1CCC(N2Cc3cc(NC(=O)c4ccc(F)cc4)ccc3C2=O)C(=O)N1 (stereo not shown) | Protein cereblon, with DDB1 (CRBN, Homo sapiens, UniProt Q96SW2) | binding, competitor, fluorescence polarization | – | together with: Cy5-labelled lenalidomide probe | 2.1 µM
CN1CCN(c2ccc(Nc3ncc4cc(C#N)c(=O)n(C5CCCC5)c4n3)cc2)CC1 | CLK1 (Homo sapiens, UniProt P49759) | – | – | – | 0.446 µM
CC(C)CNC(=O)c1cccn(-c2ccc(NC(=O)c3ccc(Br)cc3)cc2)c1=O | CTNNB1 with BCL9 HD2 | BCL9 binding, inhibitor, AlphaScreen | – | – | 26.3 µM
Sc1nnc(-c2ccncc2)o1 | Histone acetyltransferase RTT109 with Vps75 | enzyme activity, inhibitor, HTS, CPM-based, dose response | – | – | > 125 µM
Cc1cc([C@@H](C)Nc2ccccc2C(=O)O)c2nc(N3CCCCC3)cc(=O)n2c1 | Phosphatidylinositol 4,5-bisphosphate 3-kinase catalytic subunit alpha isoform, with p85 alpha (PIK3CA, Homo sapiens, UniProt P42336) | ADP-Glo | – | together with: ATP 10 µM | > 10 µM
CCCCCCCCCCCCNC(=S)NCCCC[C@H](NC(=O)OCc1ccccc1)C(=O)N[C@@H](Cc1c[nH]c2ccccc12)C(=O)N[C@@H](CCCNC(=N)N)C(N)=O | SIRT2 | enzyme activity, inhibitor | – | – | 5.3 ± 0.5 µM
O=C(Nc1cccnn1)N1CCC(=Cc2cccc(Oc3ccc(C(F)(F)F)cn3)c2)CC1 | Faah | enzyme activity, inhibitor | rat brain membranes | 30 min preincubation | 0.0027 µM
CN(C)C(=O)c1cc2cnc(Nc3cc(C(F)(F)F)c(-c4ccc5c(=O)cc(N6CCOCC6)oc5c4)cn3)nc2n1C1CCCC1 | BRD4 BD1 | inhibitor | – | – | > 10 µM
O=C(Nc1cnccc1-c1ccccc1)c1c[nH]c2ncc(-c3ccccc3)cc12 | GSK3B (Homo sapiens, UniProt P49841) | kinase activity, inhibitor | – | – | 0.00035 ± 6e-05 µM

For quick reference, copied from above:
SMILES | target | assay | system | setting | IC50
COc1cc2nccc(Oc3ccc(NC(=O)c4cc5c(n(-c6ccccc6)c4=O)CCCC5=O)nc3)c2cc1OC | LYN (Homo sapiens, UniProt P07948) | cell viability, CellTiter-Glo | Ba/F3 expressing recombinant kinase | 48 h | > 0.1 µM
CCOC(=O)[C@H](CCc1ccccc1)N[C@@H](C)C(=O)N1CCC[C@H]1C(=O)O | ACE (Oryctolagus cuniculus, UniProt P12822) | enzyme activity, inhibitor | water | 2 h, pH 8.3, 37 °C, together with: hippuryl-histidyl-leucine | 0.0376 µM
Brc1cccc2nsnc12 | Histone acetyltransferase RTT109 with Vps75 | enzyme activity, inhibitor, HTS, CPM-based, dose response | – | – | > 125 µM
FC(F)(F)c1cc(CO[C@H]2CCCN[C@H]2c2ccccc2)cc(C(F)(F)F)c1 | TACR1 (Homo sapiens, UniProt P25103) | intracellular calcium increase, antagonist | U373 MG | together with: substance P 100 nM | < 0.1 µM
CSc1ccccc1C(=O)NCCn1cc(C(=O)NCc2cccc(C)n2)c(=O)c2cc3c(cc21)OC(F)(F)O3 | Cytochrome P450 2C8 (CYP2C8, Homo sapiens, UniProt P10632) | enzyme activity, inhibitor | human liver microsomes | 20 min, 30 min NADPH preincubation, together with: amodiaquine 2 µM | > 100 µM
CN(C)C(=O)c1cc2cnc(Nc3ccc4c(=O)cc(N5CCOCC5)oc4c3)nc2n1C1CCCC1 | BRD4 BD1 | inhibitor | – | – | > 10 µM
C=CC(=O)Nc1cccc(Oc2nc(Nc3ccc(N4CCN(C)CC4)cc3)nc3ccoc23)c1 | BTK (Homo sapiens, UniProt Q06187) | – | – | concentration not given | 0.00156 µM
CC(=O)c1cnc2ccc(-c3cc(Cl)c(O)c(Cl)c3)nc2c1N[C@H]1CC[C@H](CN(C)C)CC1 | Receptor-like protein kinase FERONIA (FER, Arabidopsis thaliana, UniProt Q9SCZ4) | kinase activity, inhibitor, ADP-Glo | – | 60 min, together with: 50 µM ATP | 0.07 µM
